Measured values from different studies.
Each numbered part is a random draw from the data of one study; scales do not carry over between parts. Positions count from the first letter of the parent shown.

Study 1
Target: RNA binding protein fox-1 homolog 2, RRM domain, GST-SBP tag (RBFOX2, Homo sapiens, UniProt O43251-10, residues 100-194)
Method: RNA Bind-n-Seq
Molecule type: RNA
Matrix: in vitro
Tested at: 365 nM
Notes: natural RNA segment, single round, ends assumed
Relative to: no-protein control
Reading: higher = stronger binding
Construct (chain): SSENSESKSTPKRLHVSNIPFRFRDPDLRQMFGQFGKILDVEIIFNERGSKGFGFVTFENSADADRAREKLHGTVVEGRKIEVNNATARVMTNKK
Under “RBNS enrichment (R)”, `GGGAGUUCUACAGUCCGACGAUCAAUUUAUAGCUGUCCUUGACCUCGGGUUGGACACACCUGCAACAUGAAUAGUAAGACCUAAUAAUUCCUGGCUUAAAGAAACUGAAGGAAUUACUCUUUUAGAGAAAAACUGGAAUUCUCGGGUGCCAA` is recorded as 0.358.
`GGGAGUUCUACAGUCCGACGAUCGCCAGGCGAUUUGUGUCUAAGGAUACGAUUUUGAACCAUAUGGGCAGUGUACAAAAUAUGAAACAACUGUUUCCACACUUGCACCUGAUCAAGAGCAGUGCUUCUCCAUUUGGAAUUCUCGGGUGCCAA`: “RBNS enrichment (R)” 0.252.
`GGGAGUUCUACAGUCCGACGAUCGGGGCUCCCUGCAAUGGACGAGGAGGCUCUAAAGCCAGCCUAAGGCACUGAUUGUGGAAGAUCUGGCAACAUGAAAGAUUGCCAGCCUUUGUGUAUAGGACUGCGUUCGUUGGAAUUCUCGGGUGCCAA`: “RBNS enrichment (R)” 2.44.
For `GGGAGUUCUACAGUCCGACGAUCUUAGAGCACUUUGUUAAUGUUCUUCCAUUCACUCCAACAGCGUCCUCAGAAAGAGACAGAAUAAAAAAAUUGUUCCCCAUGGUACAGCUGGAAAAAUUAAGGGGAAAAGAUGGAAUUCUCGGGUGCCAA`, “RBNS enrichment (R)” read 0.453.
`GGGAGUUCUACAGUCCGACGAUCGUACAGCAGGUACAACCGCCUGACAGUCUCACAGGUUGUAUCCCACUCCUUACCUGUGGCCCCACCCAGCACAUCACUACGUGGAGGGGAAAGAGGCAGCUCCCACCUGGUGGAAUUCUCGGGUGCCAA` — result for “RBNS enrichment (R)”: 0.496.
Under “RBNS enrichment (R)”, `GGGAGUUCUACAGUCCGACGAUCAUUAAGUGUCUAAUGCUAGGAGUUUAUUGGAAGUGUUUAAGAAAUAAAAGAACUCAACUUUUACACUGAUAAAAUACUCUAGCUUGGGCCAGAGAAGACAGUGCUCGUUAUGGAAUUCUCGGGUGCCAA` is recorded as 2.78.
Under “RBNS enrichment (R)”, `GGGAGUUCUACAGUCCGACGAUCGGUUGCUAGCCUUAACUUCAGCUGGUGCAAAACAUCUGACUGUAGCCGAACUUCAGCCAUCAGAUCCUUCAAAGUGGAACUUUGGAUUGUUUUUACAGACAACAUCGAGUUGGAAUUCUCGGGUGCCAA` is recorded as 0.464.
For `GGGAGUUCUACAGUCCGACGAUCAGAAAGAUGGCAUAUCAGAUAUGCAAGUCUGUGAAUGUUUUGCACAGUAAUAAGUUGACUCACACAGACUUAAAGCCUGAAAACAUCUUAUUUGUGCAGUCUGACUACACUGGAAUUCUCGGGUGCCAA`, “RBNS enrichment (R)” read 0.387.

Study 2
Target: inorganic phosphate, free oxyanion
Method: microfluidic competitive inhibition
Matrix: in vitro, cell-free expressed
Tested at: not given
Notes: derived from inhibition constants, unchanged parent 615000 nM
Reading: lower = stronger binding
Starting sequence: PafA, mature enzyme, eGFP fusion (Elizabethkingia meningoseptica, UniProt Q9KJX5); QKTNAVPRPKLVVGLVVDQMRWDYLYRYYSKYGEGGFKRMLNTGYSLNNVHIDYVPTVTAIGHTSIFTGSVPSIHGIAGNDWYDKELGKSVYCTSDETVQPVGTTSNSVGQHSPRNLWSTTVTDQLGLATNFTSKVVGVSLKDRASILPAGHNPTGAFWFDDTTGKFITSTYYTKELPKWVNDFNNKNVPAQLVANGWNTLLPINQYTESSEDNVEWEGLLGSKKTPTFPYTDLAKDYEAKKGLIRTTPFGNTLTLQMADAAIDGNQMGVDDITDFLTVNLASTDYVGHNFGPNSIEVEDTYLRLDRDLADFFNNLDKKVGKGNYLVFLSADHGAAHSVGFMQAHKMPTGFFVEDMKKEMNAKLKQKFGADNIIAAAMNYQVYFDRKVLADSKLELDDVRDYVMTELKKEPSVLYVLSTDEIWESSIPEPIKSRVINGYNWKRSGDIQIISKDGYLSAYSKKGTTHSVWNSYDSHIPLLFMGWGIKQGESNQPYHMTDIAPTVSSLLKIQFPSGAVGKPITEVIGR
`S73G` — result for “phosphate dissociation constant”: 400 µM.
`F328G` — result for “phosphate dissociation constant”: 581 µM.
`L281V` — result for “phosphate dissociation constant”: 768 µM.
`T284G` — result for “phosphate dissociation constant”: 427 µM.
`S460V`: “phosphate dissociation constant” 719 µM.
`T57G` — result for “phosphate dissociation constant”: 92.6 µM.
For `G438A`, “phosphate dissociation constant” read 297 µM.
Under “phosphate dissociation constant”, `S30G` is recorded as 670 µM.
`V413G`: “phosphate dissociation constant” 715 µM.
`V189A`: “phosphate dissociation constant” 696 µM.
`Q192G` — result for “phosphate dissociation constant”: 556 µM.
`N290V` — result for “phosphate dissociation constant”: 474 µM.
For `V12G`, “phosphate dissociation constant” read 460 µM.
`A191G`: “phosphate dissociation constant” 605 µM.
Under “phosphate dissociation constant”, `Q206V` is recorded as 651 µM.
`D18G` — result for “phosphate dissociation constant”: less than 131 µM.
For `K225G`, “phosphate dissociation constant” read 620 µM.
Under “phosphate dissociation constant”, `V516G` is recorded as 397 µM.
`P154G`: “phosphate dissociation constant” 436 µM.
Under “phosphate dissociation constant”, `G525A` is recorded as 563 µM.
`T94V` — result for “phosphate dissociation constant”: 364 µM.
For `D237V`, “phosphate dissociation constant” read 507 µM.
`R39G`: “phosphate dissociation constant” 576 µM.
For `I245G`, “phosphate dissociation constant” read 299 µM.
For `F184G`, “phosphate dissociation constant” read 579 µM.

Study 3
Target: Ras GTPase-activating protein-binding protein 1, full length (G3BP1, Homo sapiens, UniProt Q13283)
Sequence of UniProt Q13283 (whole entry, looked up): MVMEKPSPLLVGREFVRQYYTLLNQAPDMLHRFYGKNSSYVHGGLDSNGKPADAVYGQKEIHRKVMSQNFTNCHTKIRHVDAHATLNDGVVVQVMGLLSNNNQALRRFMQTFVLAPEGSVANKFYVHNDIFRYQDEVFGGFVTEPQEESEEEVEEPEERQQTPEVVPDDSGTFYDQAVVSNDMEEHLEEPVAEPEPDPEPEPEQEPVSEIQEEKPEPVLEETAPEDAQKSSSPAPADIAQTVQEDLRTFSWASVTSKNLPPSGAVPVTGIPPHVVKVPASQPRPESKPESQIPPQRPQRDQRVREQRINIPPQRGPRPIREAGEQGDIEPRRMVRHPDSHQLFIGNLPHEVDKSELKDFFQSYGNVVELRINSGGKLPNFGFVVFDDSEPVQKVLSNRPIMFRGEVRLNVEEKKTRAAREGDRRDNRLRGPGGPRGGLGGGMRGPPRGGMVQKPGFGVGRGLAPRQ
Method: RNA Bind-n-Seq
Molecule type: RNA
Matrix: in vitro
Tested at: 200 nM
Notes: whole 134-nt RNA, ends assumed
Together with: 150 mM LiCl
Relative to: input library
Reading: higher = stronger binding
Library: 7-deaza-guanosine replaces G
`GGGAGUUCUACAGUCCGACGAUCGCAGGAAGUAAAAACAAAUGGAAAUGCUUCGGAUAGUGACAGGGGUGGGGGUUGCUAAGGAAAGGGUGGGAUGGGAGUGGGUAAAGAGUUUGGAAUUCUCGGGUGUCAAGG` gave a log2 enrichment of -0.0231.
With `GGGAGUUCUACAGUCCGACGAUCUCCUGUGCUACACAUCGUAUGUACCGAAUCGGCCCCCCCGGCCCCCCCGGCCCCCCCGGGAAAGUAUUAUGUUACGCCGUUCGGAUCUGCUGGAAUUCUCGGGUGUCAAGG` the log2 enrichment was 0.368.
`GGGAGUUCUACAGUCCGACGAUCACCAUGCAGGUGGGCAUCUUUGGGAAGUGGGGCAAGGGGGGGAUAGGGAGGGGGGUAUCACUUUGGGAACAGGUGGUCCCAGGUCGUUUCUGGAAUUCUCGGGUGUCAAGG` has a log2 enrichment of 0.194.
For `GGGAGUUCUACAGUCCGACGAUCCUCAAGUCCUGUGCUACACAUCGUAUGUACCGAAUCGGAAAGGUUUGGAAAGGAAAGUAUUAUGUUACGCCGUUCGGAUCUGCACUUCCAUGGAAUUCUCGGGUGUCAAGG`, the log2 enrichment was 0.19.
With `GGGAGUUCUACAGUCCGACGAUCUGGCCCUGGUGGCAUGCGGGGAGGAAGAGGUGGCCUCAUGGAUCGUGGUGGUCCCGGUGGAGUGUUCAGAGGUGGCCGUGGUGGAGACAGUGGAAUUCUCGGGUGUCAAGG` the log2 enrichment was 0.209.
The log2 enrichment of `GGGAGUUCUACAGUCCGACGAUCCCUGUGCUACACAUCGUAUGUACCGAAUCGGGAAAAAAGGGGAAAAAAGGAAAAAAGGGGAAAGUAUUAUGUUACGCCGUUCGGAUCUGCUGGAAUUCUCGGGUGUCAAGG` is reported as 0.218.
For `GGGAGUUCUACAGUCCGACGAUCCCUCAAGUCCUGUGCUACACAUCGUAUGUACCGAAUCGGCGGGGCGGGCGGGAAAGUAUUAUGUUACGCCGUUCGGAUCUGCACUUCCAGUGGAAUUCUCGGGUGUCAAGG`, the log2 enrichment was -0.0741.
With `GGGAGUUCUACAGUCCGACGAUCACCAUGCAGGUGGGCAUCUUUGGGAAGUGGGGCAAGGGGGGGAUAGGGAGGGGGGUAACACUUUGGGAACAGGUGGUCCCAGAUCGUUUCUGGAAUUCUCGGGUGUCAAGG` the log2 enrichment was 0.0875.

Study 4
Target: UDP-N-acetylglucosamine--peptide N-acetylglucosaminyltransferase 110 kDa subunit (OGT, Homo sapiens, UniProt O15294)
Sequence of UniProt O15294 (whole entry, looked up): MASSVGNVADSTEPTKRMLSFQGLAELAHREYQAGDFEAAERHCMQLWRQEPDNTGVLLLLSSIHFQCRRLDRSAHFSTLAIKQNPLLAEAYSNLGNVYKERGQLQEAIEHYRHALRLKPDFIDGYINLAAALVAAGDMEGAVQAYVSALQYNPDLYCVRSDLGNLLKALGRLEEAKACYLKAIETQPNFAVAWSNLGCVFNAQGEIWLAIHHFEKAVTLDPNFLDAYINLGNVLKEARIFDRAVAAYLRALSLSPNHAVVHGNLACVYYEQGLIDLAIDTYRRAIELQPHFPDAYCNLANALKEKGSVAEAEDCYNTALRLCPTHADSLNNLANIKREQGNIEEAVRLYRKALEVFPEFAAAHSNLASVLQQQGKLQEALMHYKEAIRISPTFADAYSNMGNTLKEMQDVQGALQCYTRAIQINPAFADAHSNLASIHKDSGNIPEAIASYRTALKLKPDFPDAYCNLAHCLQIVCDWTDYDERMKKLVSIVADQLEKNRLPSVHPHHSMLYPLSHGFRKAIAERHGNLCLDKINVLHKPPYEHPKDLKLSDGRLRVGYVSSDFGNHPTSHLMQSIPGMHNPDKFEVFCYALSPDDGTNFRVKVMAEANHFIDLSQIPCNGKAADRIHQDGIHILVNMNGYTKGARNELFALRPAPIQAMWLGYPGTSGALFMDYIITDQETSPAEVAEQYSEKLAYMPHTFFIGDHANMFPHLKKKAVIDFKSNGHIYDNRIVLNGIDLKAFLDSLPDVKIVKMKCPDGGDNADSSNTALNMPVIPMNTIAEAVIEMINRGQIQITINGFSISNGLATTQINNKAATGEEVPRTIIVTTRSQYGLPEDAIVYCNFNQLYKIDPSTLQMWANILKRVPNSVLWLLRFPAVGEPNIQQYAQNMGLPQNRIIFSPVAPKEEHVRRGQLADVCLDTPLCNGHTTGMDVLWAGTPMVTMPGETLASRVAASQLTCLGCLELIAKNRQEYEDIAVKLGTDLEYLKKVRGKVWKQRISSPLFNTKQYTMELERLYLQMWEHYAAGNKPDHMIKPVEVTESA
Read-out: phage display binding
Method: phage display panning NGS
Molecule type: peptide
Relative to: OGT-panned over input library
`GPNHIHHGHSEPHHI`: “log2 fold enrichment” 3.61.
`TYLHHGDVVDMTSHV`: “log2 fold enrichment” 3.12.
For `SYFPVYQIQSFYPVT`, “log2 fold enrichment” read 3.31.
`RFFQPAYQIMPQSYR` — result for “log2 fold enrichment”: 2.09.
Under “log2 fold enrichment”, `HYRTDHFKPDHHIHT` is recorded as 3.63.
`VGYHGTPYHKHGAHI`: “log2 fold enrichment” 2.71.
`TWRVHYPFHTHNYEI` — result for “log2 fold enrichment”: 3.7.
`WSAQPNLYPVYQIIV`: “log2 fold enrichment” 3.56.
For `DHSLPTTHIHTHHDI`, “log2 fold enrichment” read 2.57.
`ASPSYVPHYQMVYKI`: “log2 fold enrichment” 3.75.
Under “log2 fold enrichment”, `QQGFAPQYQILIEWE` is recorded as 3.27.
`RELNPVYMIDYTMAV`: “log2 fold enrichment” 2.66.
`DHDHLWQRLHDGHTS`: “log2 fold enrichment” 2.81.
`HDSNWWTDHTWKHH`: “log2 fold enrichment” 2.28.
`SYIPGRVFPPQYQIT` — result for “log2 fold enrichment”: 1.72.
`RVNHHWGFNTHTYTA` — result for “log2 fold enrichment”: 2.28.
`HSDPTGYLHHHHFL`: “log2 fold enrichment” 2.13.
Under “log2 fold enrichment”, `SAERHMHWPWNHRHS` is recorded as 2.71.
`RHDPMSFQPVYQIKY`: “log2 fold enrichment” 6.1.
`STRWFHPSHYHAMFH` — result for “log2 fold enrichment”: 3.32.
`QDLEQHMFMHHHDKH` — result for “log2 fold enrichment”: 2.61.
`TWRVPHLPPRYHEEV` — result for “log2 fold enrichment”: 2.71.
For `HGTHTAGAAPHILHH`, “log2 fold enrichment” read 3.05.
For `VDYRPAYPIDWAPWK`, “log2 fold enrichment” read 2.55.
`QLYPVDKHHTHHHVT`: “log2 fold enrichment” 3.07.

Repeated from above (study 1):
`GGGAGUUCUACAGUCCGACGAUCGUACAGCAGGUACAACCGCCUGACAGUCUCACAGGUUGUAUCCCACUCCUUACCUGUGGCCCCACCCAGCACAUCACUACGUGGAGGGGAAAGAGGCAGCUCCCACCUGGUGGAAUUCUCGGGUGCCAA` — result for “RBNS enrichment (R)”: 0.496.
For `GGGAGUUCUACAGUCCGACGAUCAGAAAGAUGGCAUAUCAGAUAUGCAAGUCUGUGAAUGUUUUGCACAGUAAUAAGUUGACUCACACAGACUUAAAGCCUGAAAACAUCUUAUUUGUGCAGUCUGACUACACUGGAAUUCUCGGGUGCCAA`, “RBNS enrichment (R)” read 0.387.
Under “RBNS enrichment (R)”, `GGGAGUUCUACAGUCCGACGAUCAUUAAGUGUCUAAUGCUAGGAGUUUAUUGGAAGUGUUUAAGAAAUAAAAGAACUCAACUUUUACACUGAUAAAAUACUCUAGCUUGGGCCAGAGAAGACAGUGCUCGUUAUGGAAUUCUCGGGUGCCAA` is recorded as 2.78.
Under “RBNS enrichment (R)”, `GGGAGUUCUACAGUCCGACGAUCAAUUUAUAGCUGUCCUUGACCUCGGGUUGGACACACCUGCAACAUGAAUAGUAAGACCUAAUAAUUCCUGGCUUAAAGAAACUGAAGGAAUUACUCUUUUAGAGAAAAACUGGAAUUCUCGGGUGCCAA` is recorded as 0.358.
Under “RBNS enrichment (R)”, `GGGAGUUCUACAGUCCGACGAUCGGUUGCUAGCCUUAACUUCAGCUGGUGCAAAACAUCUGACUGUAGCCGAACUUCAGCCAUCAGAUCCUUCAAAGUGGAACUUUGGAUUGUUUUUACAGACAACAUCGAGUUGGAAUUCUCGGGUGCCAA` is recorded as 0.464.
`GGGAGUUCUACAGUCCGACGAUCGGGGCUCCCUGCAAUGGACGAGGAGGCUCUAAAGCCAGCCUAAGGCACUGAUUGUGGAAGAUCUGGCAACAUGAAAGAUUGCCAGCCUUUGUGUAUAGGACUGCGUUCGUUGGAAUUCUCGGGUGCCAA`: “RBNS enrichment (R)” 2.44.
For `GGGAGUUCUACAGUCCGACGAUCUUAGAGCACUUUGUUAAUGUUCUUCCAUUCACUCCAACAGCGUCCUCAGAAAGAGACAGAAUAAAAAAAUUGUUCCCCAUGGUACAGCUGGAAAAAUUAAGGGGAAAAGAUGGAAUUCUCGGGUGCCAA`, “RBNS enrichment (R)” read 0.453.
`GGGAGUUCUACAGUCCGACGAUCGCCAGGCGAUUUGUGUCUAAGGAUACGAUUUUGAACCAUAUGGGCAGUGUACAAAAUAUGAAACAACUGUUUCCACACUUGCACCUGAUCAAGAGCAGUGCUUCUCCAUUUGGAAUUCUCGGGUGCCAA`: “RBNS enrichment (R)” 0.252.
